{"data": "Results of several laboratories", "note": "Protocols differ between the studies behind these lines."}
{"SMILES": "C=CC(=O)Nc1cc(Nc2nccc(Nc3cc(Cl)c(F)cc3C(C)(C)O)n2)c(OC)cc1N1CC[C@@H](N(C)C)C1", "system": "human patients", "conditions": "oral, 50 mg, treatment-emergent adverse events", "quantity": "patients with paronychia", "value": "16.7%"}
{"SMILES": "N#Cc1cn([C@@H]2O[C@H](CO)[C@@H](O)[C@H]2O)c2ncnc(N)c12", "tested on": "human coronavirus OC43", "assay": "virus-induced cell killing", "system": "MRC-5", "conditions": "screen", "quantity": "maximum inhibition", "value": "11.4%"}
{"SMILES": "Cn1nc(NS(C)(=O)=O)c2c(Cl)ccc(-n3c([C@H](Cc4cc(F)cc(F)c4)NC(=O)Cn4nc(C(F)F)c5c4C(F)(F)[C@@H]4C[C@H]54)nc4nc(OCCC(F)(F)F)ccc4c3=O)c21", "assay": "item: total cholesterol grade 1 increase", "system": "human", "conditions": "400 mg once daily, powder in bottle", "quantity": "patients with laboratory abnormality", "value": "0%"}
{"SMILES": "C[C@]1(O)C[C@@](N)(c2ccc(-c3nc4n(c3-c3ccccc3)COc3ccncc3-4)cc2)C1", "system": "human, advanced or metastatic solid tumours", "conditions": "dose not given, all patients", "quantity": "patients with any TEAE", "value": "94.1%"}
{"SMILES": "CCNC(=O)c1noc(-c2cc(C(C)C)c(O)cc2O)c1-c1ccc(CN2CCOCC2)cc1", "tested on": "human coronavirus OC43", "assay": "virus-induced cell killing", "system": "MRC-5", "conditions": "screen", "quantity": "maximum inhibition", "value": "7.09%"}
{"SMILES": "COc1ncnn2ccc(-c3cnc4nc(C)n(Cc5nnc([C@@H](C)F)o5)c4c3)c12", "system": "human", "conditions": "oral, dose not given, grade 2", "quantity": "patients with nail discoloration", "value": "0%"}
{"SMILES": "Cn1cncc1-c1c(F)cncc1NC(=O)c1c(N)nn2cc(F)cnc12", "system": "human patients", "conditions": "oral, 220 mg once daily, 2 weeks on 1 week off", "quantity": "patients grade ≥3 Lymphocyte count decrease", "value": "33%"}
{"SMILES": "Cc1cn([C@H]2O[C@@H](CO[P@@](=O)(N[C@@H](C)C(=O)OC(C)C)Oc3ccccc3)[C@H](O)[C@H]2F)c(=O)[nH]c1=O", "assay": "item: grade 3", "system": "human", "conditions": "25 mg", "quantity": "patients with ALT/AST elevation", "value": "0%"}
{"SMILES": "COc1ccc(-c2c(-c3ccc(C#N)c(F)c3)nc(N3CCC(N)CC3)n(C)c2=O)cc1F", "assay": "item: weight decreased", "system": "human patients", "conditions": "oral, 60 mg, dose expansion", "quantity": "patients with serious TEAE", "value": "0%"}
{"SMILES": "C[C@@H]1OC(=O)NN=C1c1ccc(-c2ccc(F)cc2)c(C(F)(F)F)c1", "assay": "phase I trial, item: Anaemia worst grade 3", "system": "human patients", "conditions": "dose not given, all dose groups", "quantity": "patients with adverse event", "value": "20%"}
{"SMILES": "N[C@@H]1c2ccccc2OC12CCN(c1cnc3c(N4CCCc5ncccc54)n[nH]c3n1)CC2", "assay": "item: Diarrhea", "system": "human advanced or metastatic solid tumours", "conditions": "oral, 60 mg once daily, phase Ia pooled cohort", "quantity": "patients with treatment-related adverse event", "value": "52%"}
{"note": "Repeated from above:"}
{"SMILES": "Cn1cncc1-c1c(F)cncc1NC(=O)c1c(N)nn2cc(F)cnc12", "system": "human patients", "conditions": "oral, 220 mg once daily, 2 weeks on 1 week off", "quantity": "patients grade ≥3 Lymphocyte count decrease", "value": "33%"}
{"SMILES": "Cc1cn([C@H]2O[C@@H](CO[P@@](=O)(N[C@@H](C)C(=O)OC(C)C)Oc3ccccc3)[C@H](O)[C@H]2F)c(=O)[nH]c1=O", "assay": "item: grade 3", "system": "human", "conditions": "25 mg", "quantity": "patients with ALT/AST elevation", "value": "0%"}
